Assay results collected from several papers.
Each line is one published result; not all experiments were run side by side. ± gives the spread as reported.
CNR1: Cannabinoid receptor 1 (CNR1, Homo sapiens, UniProt P21554)
Chain of UniProt P21554 (whole entry, looked up): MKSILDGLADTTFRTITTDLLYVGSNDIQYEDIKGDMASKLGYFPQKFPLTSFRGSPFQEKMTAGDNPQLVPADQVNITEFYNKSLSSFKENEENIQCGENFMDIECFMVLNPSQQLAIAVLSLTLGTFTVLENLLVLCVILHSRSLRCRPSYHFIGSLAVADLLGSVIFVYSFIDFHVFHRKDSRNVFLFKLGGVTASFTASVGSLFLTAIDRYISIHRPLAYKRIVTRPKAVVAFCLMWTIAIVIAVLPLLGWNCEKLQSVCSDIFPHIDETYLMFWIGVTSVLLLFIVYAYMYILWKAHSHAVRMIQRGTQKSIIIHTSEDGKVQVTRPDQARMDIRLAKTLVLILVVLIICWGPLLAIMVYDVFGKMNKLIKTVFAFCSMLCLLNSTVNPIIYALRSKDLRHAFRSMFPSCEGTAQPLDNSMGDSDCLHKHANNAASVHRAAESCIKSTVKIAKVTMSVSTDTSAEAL
GLP1R: Glucagon-like peptide 1 receptor (GLP1R, Homo sapiens, UniProt P43220)
Chain of UniProt P43220 (whole entry, looked up): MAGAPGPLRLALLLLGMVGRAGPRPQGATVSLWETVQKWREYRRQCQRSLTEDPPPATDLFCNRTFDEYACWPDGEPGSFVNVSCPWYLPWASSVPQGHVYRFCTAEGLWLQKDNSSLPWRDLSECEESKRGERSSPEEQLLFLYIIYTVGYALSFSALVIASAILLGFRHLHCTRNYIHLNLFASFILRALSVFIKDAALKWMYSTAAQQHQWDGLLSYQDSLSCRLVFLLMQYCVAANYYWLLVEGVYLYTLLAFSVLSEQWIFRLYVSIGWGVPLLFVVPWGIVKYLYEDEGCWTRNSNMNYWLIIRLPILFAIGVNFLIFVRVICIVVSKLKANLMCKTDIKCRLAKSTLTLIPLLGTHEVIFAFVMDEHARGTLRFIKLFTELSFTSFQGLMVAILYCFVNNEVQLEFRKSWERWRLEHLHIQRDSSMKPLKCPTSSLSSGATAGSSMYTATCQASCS
Fsr quorum sensing protein: Fsr quorum sensing protein (Enterococcus faecalis, UniProt A0ACD6TCR9)
Chain of UniProt P08172 (whole entry, looked up): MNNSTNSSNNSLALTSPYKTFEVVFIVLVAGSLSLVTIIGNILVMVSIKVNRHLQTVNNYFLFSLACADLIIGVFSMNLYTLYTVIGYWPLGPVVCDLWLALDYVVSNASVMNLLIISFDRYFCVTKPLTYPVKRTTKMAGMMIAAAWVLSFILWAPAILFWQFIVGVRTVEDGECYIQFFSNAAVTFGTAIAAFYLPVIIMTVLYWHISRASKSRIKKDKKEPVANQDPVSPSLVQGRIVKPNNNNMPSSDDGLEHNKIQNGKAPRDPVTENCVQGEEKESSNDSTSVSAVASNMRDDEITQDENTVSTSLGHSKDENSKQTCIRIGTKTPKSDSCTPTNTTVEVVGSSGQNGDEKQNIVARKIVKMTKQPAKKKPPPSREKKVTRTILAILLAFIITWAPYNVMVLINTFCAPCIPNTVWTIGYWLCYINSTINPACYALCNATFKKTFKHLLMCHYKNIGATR
Chain of UniProt Q9UKP6 (whole entry, looked up): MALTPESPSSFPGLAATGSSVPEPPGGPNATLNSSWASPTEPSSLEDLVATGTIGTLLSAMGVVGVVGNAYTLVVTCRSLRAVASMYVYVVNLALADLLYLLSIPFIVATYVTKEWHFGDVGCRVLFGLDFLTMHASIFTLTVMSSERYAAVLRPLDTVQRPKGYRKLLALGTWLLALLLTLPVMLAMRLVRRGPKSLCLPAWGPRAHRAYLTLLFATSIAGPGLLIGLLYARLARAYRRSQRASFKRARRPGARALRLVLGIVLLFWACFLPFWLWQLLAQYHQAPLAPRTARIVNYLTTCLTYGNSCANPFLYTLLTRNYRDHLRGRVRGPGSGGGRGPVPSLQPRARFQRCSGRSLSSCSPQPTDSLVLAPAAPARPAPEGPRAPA
Chain of UniProt Q704Y3 (whole entry, unmodified, looked up): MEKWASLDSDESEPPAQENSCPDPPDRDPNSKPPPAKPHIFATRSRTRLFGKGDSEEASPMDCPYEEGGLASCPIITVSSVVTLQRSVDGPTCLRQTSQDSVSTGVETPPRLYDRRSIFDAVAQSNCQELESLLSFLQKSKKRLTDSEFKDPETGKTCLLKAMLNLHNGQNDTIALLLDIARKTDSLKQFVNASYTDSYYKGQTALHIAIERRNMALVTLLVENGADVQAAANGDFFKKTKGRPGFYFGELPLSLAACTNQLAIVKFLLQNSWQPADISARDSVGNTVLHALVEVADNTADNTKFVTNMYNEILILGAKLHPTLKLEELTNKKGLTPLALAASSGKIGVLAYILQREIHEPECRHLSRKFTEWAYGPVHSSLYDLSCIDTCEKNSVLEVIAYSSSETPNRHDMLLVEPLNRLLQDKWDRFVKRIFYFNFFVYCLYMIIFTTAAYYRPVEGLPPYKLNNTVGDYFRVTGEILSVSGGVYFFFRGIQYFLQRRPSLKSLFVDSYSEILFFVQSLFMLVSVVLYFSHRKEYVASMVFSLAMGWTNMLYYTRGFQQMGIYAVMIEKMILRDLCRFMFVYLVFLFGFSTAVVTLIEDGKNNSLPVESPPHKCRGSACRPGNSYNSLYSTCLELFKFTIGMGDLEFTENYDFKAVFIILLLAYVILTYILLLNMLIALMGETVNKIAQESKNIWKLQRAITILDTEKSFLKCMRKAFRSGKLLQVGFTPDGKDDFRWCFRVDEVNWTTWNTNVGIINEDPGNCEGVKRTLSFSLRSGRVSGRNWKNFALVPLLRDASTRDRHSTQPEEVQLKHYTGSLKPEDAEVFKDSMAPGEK
Chain of UniProt P32214 (whole entry, looked up): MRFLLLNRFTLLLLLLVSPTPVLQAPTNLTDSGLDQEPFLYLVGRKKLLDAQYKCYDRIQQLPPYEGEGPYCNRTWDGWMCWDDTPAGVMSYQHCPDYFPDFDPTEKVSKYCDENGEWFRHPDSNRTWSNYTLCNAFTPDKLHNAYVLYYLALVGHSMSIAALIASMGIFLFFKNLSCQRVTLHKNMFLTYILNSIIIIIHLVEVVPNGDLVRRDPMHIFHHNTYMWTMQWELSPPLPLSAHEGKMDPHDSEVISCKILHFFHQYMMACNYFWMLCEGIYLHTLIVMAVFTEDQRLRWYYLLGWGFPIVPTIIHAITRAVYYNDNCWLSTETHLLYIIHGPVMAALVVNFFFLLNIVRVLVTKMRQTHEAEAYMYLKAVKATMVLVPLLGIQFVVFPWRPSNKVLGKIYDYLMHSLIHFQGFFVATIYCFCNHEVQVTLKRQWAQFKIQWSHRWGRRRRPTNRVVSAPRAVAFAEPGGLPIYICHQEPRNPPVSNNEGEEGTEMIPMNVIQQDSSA
Chain of UniProt Q3UFF7 (whole entry, looked up): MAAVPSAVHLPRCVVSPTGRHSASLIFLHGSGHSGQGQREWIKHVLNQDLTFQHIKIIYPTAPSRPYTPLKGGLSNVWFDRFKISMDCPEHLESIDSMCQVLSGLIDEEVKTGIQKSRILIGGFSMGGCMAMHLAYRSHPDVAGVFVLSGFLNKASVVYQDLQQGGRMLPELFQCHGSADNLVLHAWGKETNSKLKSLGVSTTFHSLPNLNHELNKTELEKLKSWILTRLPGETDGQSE
Chain of UniProt Q9GZQ4 (whole entry, looked up): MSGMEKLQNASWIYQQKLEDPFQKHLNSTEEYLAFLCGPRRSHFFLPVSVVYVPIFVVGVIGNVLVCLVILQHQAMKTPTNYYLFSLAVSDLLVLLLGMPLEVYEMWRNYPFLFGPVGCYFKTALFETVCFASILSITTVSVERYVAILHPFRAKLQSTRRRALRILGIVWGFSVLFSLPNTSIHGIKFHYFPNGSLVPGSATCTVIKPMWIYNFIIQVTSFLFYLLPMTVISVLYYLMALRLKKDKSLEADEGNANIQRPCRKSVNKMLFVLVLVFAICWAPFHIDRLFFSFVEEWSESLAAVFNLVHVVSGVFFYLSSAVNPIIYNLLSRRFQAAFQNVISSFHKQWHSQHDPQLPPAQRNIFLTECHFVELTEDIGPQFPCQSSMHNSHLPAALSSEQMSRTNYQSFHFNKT
Chain of UniProt Q9JJ74 (whole entry, looked up): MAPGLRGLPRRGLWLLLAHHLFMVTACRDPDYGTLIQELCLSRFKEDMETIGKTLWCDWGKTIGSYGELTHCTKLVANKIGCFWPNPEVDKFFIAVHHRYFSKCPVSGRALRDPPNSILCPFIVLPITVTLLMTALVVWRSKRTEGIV
Chain of UniProt Q8TDU6 (whole entry, looked up): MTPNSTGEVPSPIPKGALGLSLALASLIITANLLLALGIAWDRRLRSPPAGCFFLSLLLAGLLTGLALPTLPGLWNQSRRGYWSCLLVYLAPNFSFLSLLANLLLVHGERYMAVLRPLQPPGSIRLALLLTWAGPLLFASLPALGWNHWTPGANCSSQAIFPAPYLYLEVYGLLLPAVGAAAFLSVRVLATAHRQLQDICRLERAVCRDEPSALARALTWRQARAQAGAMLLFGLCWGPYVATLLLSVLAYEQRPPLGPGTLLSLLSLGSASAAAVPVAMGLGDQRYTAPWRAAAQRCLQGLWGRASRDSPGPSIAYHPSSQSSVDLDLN
Chain of UniProt P47871 (whole entry, looked up): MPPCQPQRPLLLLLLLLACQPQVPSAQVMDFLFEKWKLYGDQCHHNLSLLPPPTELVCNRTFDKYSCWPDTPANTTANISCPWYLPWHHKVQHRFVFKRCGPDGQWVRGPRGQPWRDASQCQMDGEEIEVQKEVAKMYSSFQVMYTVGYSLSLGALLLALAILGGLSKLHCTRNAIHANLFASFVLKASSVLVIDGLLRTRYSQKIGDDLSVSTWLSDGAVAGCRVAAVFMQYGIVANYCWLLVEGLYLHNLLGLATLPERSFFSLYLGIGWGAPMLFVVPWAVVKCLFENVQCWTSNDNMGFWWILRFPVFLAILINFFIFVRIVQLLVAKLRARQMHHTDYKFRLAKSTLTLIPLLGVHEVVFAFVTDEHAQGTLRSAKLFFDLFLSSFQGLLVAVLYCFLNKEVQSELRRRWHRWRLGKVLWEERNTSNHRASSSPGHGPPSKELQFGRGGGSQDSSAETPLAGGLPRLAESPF

| Structure (SMILES) | target | assay | test system | conditions | EC50 |
| --- | --- | --- | --- | --- | --- |
| CCCCCn1ccc(C(=O)NC(C)(C)c2ccc(NC(C)=O)cc2Cl)n1 | CNR1 | calcium signal, agonist |  |  | 202 nM |
| Cc1nc2ccc(S(=O)(=O)n3nc(CCCc4ccc(Cl)cc4)nc3N)cc2s1 | Lysophospholipase-like protein 1 (Mus musculus, UniProt Q3UFF7) | enzyme activity, activator, gel-based ABPP |  |  | > 20000 nM |
| CCCCCn1ccc(C(=O)NC(C)(C)c2ccc(CCC(N)=O)cc2)n1 | CNR1 | calcium signal, agonist |  |  | > 10000 nM |
| O=C(O)CCn1c(=O)oc2cc(Cl)c(Cl)cc21 | CHRM2 (Homo sapiens, UniProt P08172) | agonist |  |  | > 50100 nM |
| CC[C@H](C)[C@H](NC(=O)[C@H](C)NC(=O)CNC(=O)[C@H](Cc1ccccc1)NC(=O)[C@H](CC(N)=O)NC(=O)[C@H](CC(N)=O)NC(=O)[C@H](CO)NC(=O)[C@H](CO)NC(=O)[C@H](Cc1c[nH]cn1)NC(=O)[C@@H](NC(=O)[C@H](CC(C)C)NC(=O)[C@H](Cc1ccccc1)NC(=O)[C@H](CC(N)=O)NC(=O)[C@H](C)NC(=O)[C@H](CC(C)C)NC(=O)[C@H](CCCNC(=N)N)NC(=O)[C@H](CCC(N)=O)NC(=O)[C@@H](NC(=O)[C@H](C)NC(=O)[C@@H]1CSSC[C@H](NC(=O)[C@H](CCCCN)NC(=O)[C@H](CCCNC(=N)N)NC(=O)[C@H](CCCCN)NC(=O)[C@H](CCC(=O)O)NC(=O)[C@@H](NC(=O)[C@H](CCC(N)=O)NC(=O)[C@H](Cc2c[nH]cn2)NC(=O)[C@H](CO)NC(=O)[C@H](CCC(=O)O)NC(=O)[C@@H](NC(=O)[C@@H]2CCCN2C(=O)[C@@H](N)[C@@H](C)O)[C@@H](C)CC)C(C)C)C(=O)N[C@@H](CC(N)=O)C(=O)N[C@@H]([C@@H](C)O)C(=O)N[C@@H](C)C(=O)N[C@@H]([C@@H](C)O)C(=O)N1)[C@@H](C)O)C(C)C)C(=O)N[C@@H](CC(C)C)C(=O)N[C@@H](CO)C(=O)N[C@@H](CO)C(=O)N[C@H](C(=O)N[C@@H](CC(N)=O)C(=O)N[C@H](C(=O)NCC(=O)N[C@@H](CO)C(=O)N[C@@H](CC(N)=O)C(=O)N[C@H](C(=O)N[C@@H](Cc1ccc(O)cc1)C(N)=O)[C@@H](C)O)C(C)C)[C@@H](C)O | Calcr/Ramp1 (Rattus norvegicus, UniProt P32214+Q9JJ74) | cAMP accumulation, agonist | COS-7, transfected |  | 8.71 nM |
| CCCCCn1ccc(C(=O)NC(C)(C)c2ccc(CNC(C)=O)cc2)n1 | CNR1 | calcium signal, agonist |  |  | 221 nM |
| CCCCC/C=C\C/C=C\C/C=C\C/C=C\CCCC(=O)NCCc1ccc(O)c(O)c1 | Trpv1 (Mus musculus, UniProt Q704Y3, S513A) | ion current, agonist, whole-cell patch clamp |  | 24 °C, +80 mV | 90 ± 20 nM |
| CC(C)[C@H](NC(=O)[C@@H]1CSSC(C)(C)[C@H](NC(=O)[C@@H](N)CC(=O)O)C(=O)N[C@@H](Cc2ccccc2)C(=O)N[C@@H](Cc2c[nH]c3ccccc23)C(=O)N[C@@H](CCCCN)C(=O)N[C@@H](Cc2ccc(O)cc2)C(=O)N1)C(=O)O | UTS2R (Homo sapiens, UniProt Q9UKP6) | inositol phosphate, agonist, TR-FRET |  |  | 0.631 nM |
| CC[C@H](C)[C@H](NC(=O)[C@H](Cc1ccccc1)NC(=O)[C@H](CCC(=O)O)NC(=O)[C@H](CCCCN)NC(=O)[C@H](C)NC(=O)[C@H](C)NC(=O)[C@H](CCC(N)=O)NC(=O)CNC(=O)[C@H](CCC(=O)O)NC(=O)[C@H](CC(C)C)NC(=O)[C@H](Cc1ccc(O)cc1)NC(=O)[C@H](CO)NC(=O)[C@H](CO)NC(=O)[C@@H](NC(=O)[C@H](CC(=O)O)NC(=O)[C@H](CO)NC(=O)[C@@H](NC(=O)[C@H](Cc1ccccc1)NC(=O)[C@@H](NC(=O)CNC(=O)[C@H](CCC(=O)O)NC(=O)[C@H](C)NC(=O)[C@@H](N)Cc1c[nH]cn1)[C@@H](C)O)[C@@H](C)O)C(C)C)C(=O)N[C@@H](C)C(=O)N[C@@H](Cc1c[nH]c2ccccc12)C(=O)N[C@@H](CC(C)C)C(=O)N[C@H](C(=O)N[C@@H](CCCCN)CN(CC(=O)N[C@@H](CCCNC(=N)N)C(=O)N[C@@H](CCCCN)CN(CC(N)=O)S(C)(=O)=O)S(C)(=O)=O)C(C)C | GLP1R | reporter gene, agonist, luciferase |  |  | 3.85 nM |
| CC[C@H](C)[C@@H]1NC(=O)[C@H](CC(N)=O)NC(=O)[C@@H]2CCCN2C(=O)[C@@H](NC(=O)[C@H](CC(N)=O)NC(=O)CNCCC(N)=O)COC(=O)[C@H](CCSC)NC(=O)[C@H](Cc2c[nH]c3ccccc23)NC(=O)[C@H](CCC(N)=O)NC(=O)CNC(=O)[C@H](Cc2ccccc2)NC1=O | Fsr quorum sensing protein | Fsr quorum sensing, agonist, β-galactosidase reporter |  |  | 0.641 nM |
| CC[C@H](C)[C@H](NC(=O)[C@H](Cc1ccccc1)NC(=O)[C@H](CCC(=O)O)NC(=O)[C@H](CCCCN)NC(=O)[C@H](C)NC(=O)[C@H](C)NC(=O)[C@H](CCC(N)=O)NC(=O)CNC(=O)[C@H](CCC(=O)O)NC(=O)[C@H](CC(C)C)NC(=O)[C@H](Cc1ccc(O)cc1)NC(=O)[C@H]1CNC[C@@H]1NC(=O)[C@H](CO)NC(=O)C(C)(C)NC(=O)[C@H](CC(=O)O)NC(=O)[C@H](CO)NC(=O)[C@@H](NC(=O)[C@H](Cc1ccccc1)NC(=O)[C@@H](NC(=O)CNC(=O)[C@H](CCC(=O)O)NC(=O)[C@H](C)NC(=O)[C@@H](N)Cc1c[nH]cn1)[C@@H](C)O)[C@@H](C)O)C(=O)N[C@@H](C)C(=O)N[C@@H](Cc1c[nH]c2ccccc12)C(=O)N[C@@H](CC(C)C)C(=O)N[C@H](C(=O)N[C@@H](CCCCN)C(=O)NCC(=O)N[C@@H](CCCNC(=N)N)C(N)=O)C(C)C | GLP1R | β-arrestin-1 recruitment, agonist, BRET | HEK293FT with GRK5 |  | 4.9 nM |
| CC[C@H](C)[C@H](NC(=O)[C@H](Cc1ccccc1)NC(=O)[C@H](CCC(=O)O)NC(=O)[C@H](CCCCN)NC(=O)[C@H](C)NC(=O)[C@H](C)NC(=O)[C@H](CCC(N)=O)NC(=O)CNC(=O)[C@H](CCC(=O)O)NC(=O)[C@H](CC(C)C)NC(=O)[C@H](Cc1ccc(O)cc1)NC(=O)[C@H](CO)NC(=O)[C@H](CO)NC(=O)[C@@H](NC(=O)[C@H](CC(=O)O)NC(=O)[C@H](CO)NC(=O)[C@@H](NC(=O)CN(C[C@@H](NC(=O)CNC(=O)CN(C[C@H](C)NC(=O)[C@@H](N)Cc1c[nH]cn1)S(=O)(=O)c1ccc(C(=O)O)cc1)[C@H](C)O)S(=O)(=O)Cc1ccccc1)[C@@H](C)O)C(C)C)C(=O)N[C@@H](C)C(=O)N[C@@H](Cc1c[nH]c2ccccc12)C(=O)N[C@@H](CC(C)C)C(=O)N[C@H](C(=O)N[C@@H](CCCCN)CN(CC(=O)N[C@@H](CCCNC(=N)N)C(=O)N[C@@H](CCCCN)CN(CC(N)=O)S(C)(=O)=O)S(C)(=O)=O)C(C)C | GLP1R | reporter gene, agonist, luciferase |  |  | > 1000 nM |
| CCCCCCCCCCCCCCCCCC(=O)NC[C@H]1CC[C@H](C(=O)N[C@@H](CCC(=O)NCCCOCCOCCOCCCNC(=O)COCC(=O)N[C@@H](Cc2ccc(O)cc2)C(=O)NC(C)(Cc2ccccc2)C(=O)N[C@@H](CC(C)C)C(=O)N[C@@H](CCCC)C(=O)N[C@@H](CCCNC(=N)N)C(=O)N2CCC[C@H]2C(=O)N[C@@H](CCCNC(=N)NC)C(=O)N[C@@H](CC(N)=O)C(N)=O)C(=O)O)CC1 (stereo partly drawn) | NMUR2 (Homo sapiens, UniProt Q9GZQ4) | beta-arrestin recruitment, agonist, PathHunter luminescence | CHO-K1 | 90 min, 37 °C | 6.9 nM |
| CC(=O)N[C@@H](Cc1c[nH]cn1)C(=O)N[C@@H](C)C(=O)N[C@@H](CCC(=O)O)C(=O)NCC(=O)N[C@H](C(=O)N[C@@H](Cc1ccccc1)C(=O)N[C@H](C(=O)N[C@@H](CO)C(=O)N[C@@H](CC(=O)O)C(=O)N[C@H](C(=O)N[C@@H](CO)C(=O)N[C@@H](CO)C(=O)N[C@@H](Cc1ccc(O)cc1)C(=O)N[C@@H](CC(C)C)C(=O)N[C@@H](CCC(=O)O)C(=O)NCC(=O)N[C@@H](CCC(N)=O)C(=O)N[C@@H](C)C(=O)N[C@@H](C)C(=O)N[C@@H](CCCCN)C(=O)N[C@@H](CCC(=O)O)C(=O)N[C@@H](Cc1ccccc1)CN(CC(=O)N[C@@H](C)C(=O)N[C@@H](Cc1c[nH]c2ccccc12)CN(CC(=O)N[C@H](C(=O)N[C@@H](CCCCN)CN(CC(=O)N[C@@H](CCCNC(=N)N)C(=O)N[C@@H](CCCCN)CN(CC(N)=O)S(C)(=O)=O)S(C)(=O)=O)C(C)C)S(=O)(=O)CC(C)C)S(=O)(=O)CC(C)C)C(C)C)[C@@H](C)O)[C@@H](C)O | GLP1R | reporter gene, agonist, luciferase |  |  | > 1000 nM |
| CC[C@H](C)[C@@H]1NC(=O)[C@H](CC(N)=O)NC(=O)[C@@H]2CCCN2C(=O)[C@@H](NC(=O)CN(CC(N)=O)C(=O)[C@@H](N)CCC(N)=O)COC(=O)[C@H](CCSC)NC(=O)[C@H](Cc2c[nH]c3ccccc23)NC(=O)[C@H](CCC(N)=O)NC(=O)CNC(=O)[C@H](Cc2ccccc2)NC1=O | Fsr quorum sensing protein | Fsr quorum sensing, agonist, β-galactosidase reporter |  |  | > 10000 nM |
| CCCCCCCCCCCCCCCC(=O)N[C@@H](CCC(=O)NCCCC[C@H](NC(=O)[C@H](CC(=O)O)NC(=O)[C@H](CO)NC(=O)[C@@H](NC(=O)[C@H](Cc1ccccc1)NC(=O)[C@@H](NC(=O)CNC(=O)[C@H](CCC(N)=O)NC(=O)[C@H](C)NC(=O)[C@H](Cc1c[nH]cn1)NCC(F)(F)F)[C@@H](C)O)[C@@H](C)O)C(=O)N[C@@H](CO)C(=O)N[C@@H](CCCCN)C(=O)N[C@@H](Cc1ccc(O)cc1)C(=O)N[C@@H](CC(C)C)C(=O)N[C@@H](CC(=O)O)C(=O)N[C@@H](CCC(=O)O)C(=O)N[C@@H](CCCNC(=N)N)C(=O)N[C@@H](C)C(=O)N[C@@H](C)C(=O)N[C@@H](CCC(N)=O)C(=O)N[C@@H](CC(=O)O)C(=O)N[C@@H](Cc1ccccc1)C(=O)N[C@H](C(=O)N[C@@H](CCC(N)=O)C(=O)N[C@@H](Cc1c[nH]c2ccccc12)C(=O)N[C@@H](CC(C)C)C(=O)N[C@@H](CC(C)C)C(=O)N[C@@H](CC(=O)O)C(=O)NCC(=O)NCC(=O)N1CCC[C@H]1C(=O)N[C@@H](CO)C(=O)N[C@@H](CO)C(=O)NCC(=O)N[C@@H](C)C(=O)N1CCC[C@H]1C(=O)N1CCC[C@H]1C(=O)N1CCC[C@H]1C(=O)N[C@@H](CO)C(N)=O)C(C)C)C(=O)O | Glucagon receptor (GCGR, Homo sapiens, UniProt P47871) | reporter gene, agonist, luciferase |  |  | 0.00398 nM |
| CC(CCC(=O)NCC(=O)O)C1CCC2C3CCC4CC(O)CCC4(C)C3CCC12C (stereo not drawn) | GPBAR1 (Homo sapiens, UniProt Q8TDU6) | agonist |  |  | 290 ± 90 nM |
| CCCCCn1ccc(C(=O)NC(C)(C)c2ccccc2C)n1 | CNR1 | calcium signal, agonist |  |  | 423 nM |

Some of these lines once more:
| Structure (SMILES) | target | assay | test system | conditions | EC50 |
| --- | --- | --- | --- | --- | --- |
| Cc1nc2ccc(S(=O)(=O)n3nc(CCCc4ccc(Cl)cc4)nc3N)cc2s1 | Lysophospholipase-like protein 1 (Mus musculus, UniProt Q3UFF7) | enzyme activity, activator, gel-based ABPP |  |  | > 20000 nM |
| CC[C@H](C)[C@H](NC(=O)[C@H](Cc1ccccc1)NC(=O)[C@H](CCC(=O)O)NC(=O)[C@H](CCCCN)NC(=O)[C@H](C)NC(=O)[C@H](C)NC(=O)[C@H](CCC(N)=O)NC(=O)CNC(=O)[C@H](CCC(=O)O)NC(=O)[C@H](CC(C)C)NC(=O)[C@H](Cc1ccc(O)cc1)NC(=O)[C@H](CO)NC(=O)[C@H](CO)NC(=O)[C@@H](NC(=O)[C@H](CC(=O)O)NC(=O)[C@H](CO)NC(=O)[C@@H](NC(=O)[C@H](Cc1ccccc1)NC(=O)[C@@H](NC(=O)CNC(=O)[C@H](CCC(=O)O)NC(=O)[C@H](C)NC(=O)[C@@H](N)Cc1c[nH]cn1)[C@@H](C)O)[C@@H](C)O)C(C)C)C(=O)N[C@@H](C)C(=O)N[C@@H](Cc1c[nH]c2ccccc12)C(=O)N[C@@H](CC(C)C)C(=O)N[C@H](C(=O)N[C@@H](CCCCN)CN(CC(=O)N[C@@H](CCCNC(=N)N)C(=O)N[C@@H](CCCCN)CN(CC(N)=O)S(C)(=O)=O)S(C)(=O)=O)C(C)C | GLP1R | reporter gene, agonist, luciferase |  |  | 3.85 nM |
| CC[C@H](C)[C@@H]1NC(=O)[C@H](CC(N)=O)NC(=O)[C@@H]2CCCN2C(=O)[C@@H](NC(=O)CN(CC(N)=O)C(=O)[C@@H](N)CCC(N)=O)COC(=O)[C@H](CCSC)NC(=O)[C@H](Cc2c[nH]c3ccccc23)NC(=O)[C@H](CCC(N)=O)NC(=O)CNC(=O)[C@H](Cc2ccccc2)NC1=O | Fsr quorum sensing protein | Fsr quorum sensing, agonist, β-galactosidase reporter |  |  | > 10000 nM |
